Experimental data collected from several papers.
Parts stem from different laboratories: compare values within a part only. Values joined by “and” are separate records of one study, mostly repeats; a detail may differ.
Sequence of UniProt Q13554 (whole entry, looked up): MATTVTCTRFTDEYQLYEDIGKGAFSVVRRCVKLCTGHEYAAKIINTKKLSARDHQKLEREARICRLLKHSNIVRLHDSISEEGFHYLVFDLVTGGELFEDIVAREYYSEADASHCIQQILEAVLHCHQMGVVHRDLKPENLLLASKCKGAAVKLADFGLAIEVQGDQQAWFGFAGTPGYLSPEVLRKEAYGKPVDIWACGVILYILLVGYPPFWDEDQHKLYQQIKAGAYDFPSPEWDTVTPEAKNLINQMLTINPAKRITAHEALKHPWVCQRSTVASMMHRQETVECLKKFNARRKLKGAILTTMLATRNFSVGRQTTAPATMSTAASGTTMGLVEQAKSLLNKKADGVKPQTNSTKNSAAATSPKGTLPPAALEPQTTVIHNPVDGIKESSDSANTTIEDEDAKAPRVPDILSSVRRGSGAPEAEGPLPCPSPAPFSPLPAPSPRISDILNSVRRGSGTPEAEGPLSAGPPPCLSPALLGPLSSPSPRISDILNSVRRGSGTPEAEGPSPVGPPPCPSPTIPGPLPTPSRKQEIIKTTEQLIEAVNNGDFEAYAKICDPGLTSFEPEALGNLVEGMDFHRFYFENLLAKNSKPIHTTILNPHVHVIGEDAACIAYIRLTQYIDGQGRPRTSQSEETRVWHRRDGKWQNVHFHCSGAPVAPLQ
Sequence of UniProt Q00534 (whole entry, looked up): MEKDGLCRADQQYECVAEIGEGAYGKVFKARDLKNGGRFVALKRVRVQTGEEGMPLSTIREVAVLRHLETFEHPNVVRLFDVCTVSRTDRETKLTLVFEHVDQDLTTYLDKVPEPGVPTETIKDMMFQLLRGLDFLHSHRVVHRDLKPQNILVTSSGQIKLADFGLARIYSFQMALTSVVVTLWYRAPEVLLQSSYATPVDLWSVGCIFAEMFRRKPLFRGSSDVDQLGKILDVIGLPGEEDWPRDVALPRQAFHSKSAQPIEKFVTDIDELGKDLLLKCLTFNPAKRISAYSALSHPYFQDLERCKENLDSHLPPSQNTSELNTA
Sequence of UniProt Q9H3Y6 (whole entry, looked up): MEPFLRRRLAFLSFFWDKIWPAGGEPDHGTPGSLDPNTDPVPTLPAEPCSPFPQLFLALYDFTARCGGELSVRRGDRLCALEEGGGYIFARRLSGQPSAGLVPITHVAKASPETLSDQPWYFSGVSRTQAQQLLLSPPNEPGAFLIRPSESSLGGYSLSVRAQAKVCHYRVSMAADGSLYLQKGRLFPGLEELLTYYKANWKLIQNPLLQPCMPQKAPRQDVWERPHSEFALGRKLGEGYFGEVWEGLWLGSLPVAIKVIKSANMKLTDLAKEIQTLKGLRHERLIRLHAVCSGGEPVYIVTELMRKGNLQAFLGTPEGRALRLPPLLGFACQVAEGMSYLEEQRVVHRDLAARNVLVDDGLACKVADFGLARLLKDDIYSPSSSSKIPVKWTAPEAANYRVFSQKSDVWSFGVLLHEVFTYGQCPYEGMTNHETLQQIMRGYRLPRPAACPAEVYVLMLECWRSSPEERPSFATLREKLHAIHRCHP
Sequence of UniProt P54762 (whole entry, looked up): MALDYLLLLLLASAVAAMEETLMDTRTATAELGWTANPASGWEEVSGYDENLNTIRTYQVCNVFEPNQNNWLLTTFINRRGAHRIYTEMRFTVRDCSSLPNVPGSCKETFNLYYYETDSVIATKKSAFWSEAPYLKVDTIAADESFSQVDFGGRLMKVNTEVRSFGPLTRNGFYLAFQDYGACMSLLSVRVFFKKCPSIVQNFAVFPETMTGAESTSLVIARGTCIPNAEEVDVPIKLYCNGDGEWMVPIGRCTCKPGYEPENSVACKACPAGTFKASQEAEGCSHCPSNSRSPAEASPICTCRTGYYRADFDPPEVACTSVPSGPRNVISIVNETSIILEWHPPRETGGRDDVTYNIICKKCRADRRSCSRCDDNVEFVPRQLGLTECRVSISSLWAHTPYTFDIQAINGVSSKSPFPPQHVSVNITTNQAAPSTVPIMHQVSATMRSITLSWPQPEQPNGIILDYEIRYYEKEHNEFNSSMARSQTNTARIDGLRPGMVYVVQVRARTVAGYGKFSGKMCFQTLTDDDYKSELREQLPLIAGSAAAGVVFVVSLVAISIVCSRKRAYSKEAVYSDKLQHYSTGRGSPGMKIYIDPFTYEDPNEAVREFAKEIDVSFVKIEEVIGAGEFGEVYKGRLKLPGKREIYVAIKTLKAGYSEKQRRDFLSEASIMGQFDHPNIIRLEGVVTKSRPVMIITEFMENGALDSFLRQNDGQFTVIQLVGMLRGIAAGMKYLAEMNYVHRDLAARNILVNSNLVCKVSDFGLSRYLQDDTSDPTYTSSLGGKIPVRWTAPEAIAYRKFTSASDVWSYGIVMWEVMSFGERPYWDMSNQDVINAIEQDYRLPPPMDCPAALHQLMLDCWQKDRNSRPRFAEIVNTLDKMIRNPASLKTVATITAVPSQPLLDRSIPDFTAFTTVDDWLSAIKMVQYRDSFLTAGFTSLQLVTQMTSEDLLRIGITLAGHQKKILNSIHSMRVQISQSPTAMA
Sequence of UniProt Q9H2X6 (whole entry, looked up): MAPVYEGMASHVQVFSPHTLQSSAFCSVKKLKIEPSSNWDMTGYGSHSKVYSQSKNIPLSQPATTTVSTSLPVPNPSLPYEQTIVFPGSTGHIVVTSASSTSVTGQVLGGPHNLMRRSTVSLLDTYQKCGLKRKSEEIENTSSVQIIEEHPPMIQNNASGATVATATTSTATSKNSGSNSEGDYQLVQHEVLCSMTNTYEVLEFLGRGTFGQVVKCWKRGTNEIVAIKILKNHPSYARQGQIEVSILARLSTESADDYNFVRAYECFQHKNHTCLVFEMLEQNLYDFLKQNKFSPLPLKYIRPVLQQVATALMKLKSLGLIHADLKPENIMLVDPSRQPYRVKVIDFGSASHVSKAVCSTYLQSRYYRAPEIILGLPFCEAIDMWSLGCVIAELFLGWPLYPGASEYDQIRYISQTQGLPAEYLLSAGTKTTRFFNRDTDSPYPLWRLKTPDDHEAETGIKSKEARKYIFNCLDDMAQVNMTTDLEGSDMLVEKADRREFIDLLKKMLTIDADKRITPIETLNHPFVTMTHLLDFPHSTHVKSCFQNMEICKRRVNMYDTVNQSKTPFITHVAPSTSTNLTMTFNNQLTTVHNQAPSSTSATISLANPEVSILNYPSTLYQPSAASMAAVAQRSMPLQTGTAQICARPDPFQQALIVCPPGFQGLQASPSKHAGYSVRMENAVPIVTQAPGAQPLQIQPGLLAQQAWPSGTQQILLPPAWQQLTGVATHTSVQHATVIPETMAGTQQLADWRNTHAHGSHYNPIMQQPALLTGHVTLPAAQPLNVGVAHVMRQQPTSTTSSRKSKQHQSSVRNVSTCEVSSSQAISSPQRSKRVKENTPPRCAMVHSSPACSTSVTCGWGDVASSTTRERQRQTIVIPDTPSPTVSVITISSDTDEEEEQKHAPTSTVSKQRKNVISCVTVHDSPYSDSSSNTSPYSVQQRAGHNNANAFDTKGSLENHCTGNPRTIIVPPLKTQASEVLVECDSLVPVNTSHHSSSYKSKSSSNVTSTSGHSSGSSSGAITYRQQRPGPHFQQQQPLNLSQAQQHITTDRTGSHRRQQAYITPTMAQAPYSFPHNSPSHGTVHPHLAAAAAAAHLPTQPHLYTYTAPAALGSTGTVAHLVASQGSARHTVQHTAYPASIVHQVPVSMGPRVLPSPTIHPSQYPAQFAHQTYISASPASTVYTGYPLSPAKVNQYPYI
Sequence of UniProt P11802 (whole entry, looked up): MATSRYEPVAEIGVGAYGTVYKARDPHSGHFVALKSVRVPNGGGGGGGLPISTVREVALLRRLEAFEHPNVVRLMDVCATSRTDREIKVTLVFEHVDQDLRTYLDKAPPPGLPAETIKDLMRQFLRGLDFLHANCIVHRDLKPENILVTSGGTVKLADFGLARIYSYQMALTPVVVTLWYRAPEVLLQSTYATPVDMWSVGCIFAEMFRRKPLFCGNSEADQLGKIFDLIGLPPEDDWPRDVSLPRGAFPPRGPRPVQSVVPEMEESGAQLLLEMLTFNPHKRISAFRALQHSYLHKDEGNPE
Sequence of UniProt O43781 (whole entry, looked up): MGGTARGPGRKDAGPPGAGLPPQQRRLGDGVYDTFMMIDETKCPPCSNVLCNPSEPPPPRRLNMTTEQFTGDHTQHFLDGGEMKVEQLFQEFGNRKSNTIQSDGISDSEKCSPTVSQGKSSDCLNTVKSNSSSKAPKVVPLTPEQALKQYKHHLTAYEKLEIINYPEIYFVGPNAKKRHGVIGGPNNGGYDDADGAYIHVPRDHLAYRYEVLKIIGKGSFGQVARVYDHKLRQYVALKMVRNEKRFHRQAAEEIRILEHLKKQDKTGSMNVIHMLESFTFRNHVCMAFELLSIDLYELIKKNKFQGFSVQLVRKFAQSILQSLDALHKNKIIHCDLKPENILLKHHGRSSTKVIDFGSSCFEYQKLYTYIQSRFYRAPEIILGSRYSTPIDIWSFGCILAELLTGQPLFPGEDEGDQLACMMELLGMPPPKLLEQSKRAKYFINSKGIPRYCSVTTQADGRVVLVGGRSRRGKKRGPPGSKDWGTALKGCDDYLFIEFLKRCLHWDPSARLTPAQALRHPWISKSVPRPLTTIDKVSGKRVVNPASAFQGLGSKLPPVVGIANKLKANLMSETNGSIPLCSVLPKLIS

Sample 1 — read-out: ligand displacement; tested at: 10 µM
Target: Muscarinic acetylcholine receptor M1 (CHRM1, Homo sapiens, UniProt P11229)
Sequence of UniProt P11229 (whole entry, looked up): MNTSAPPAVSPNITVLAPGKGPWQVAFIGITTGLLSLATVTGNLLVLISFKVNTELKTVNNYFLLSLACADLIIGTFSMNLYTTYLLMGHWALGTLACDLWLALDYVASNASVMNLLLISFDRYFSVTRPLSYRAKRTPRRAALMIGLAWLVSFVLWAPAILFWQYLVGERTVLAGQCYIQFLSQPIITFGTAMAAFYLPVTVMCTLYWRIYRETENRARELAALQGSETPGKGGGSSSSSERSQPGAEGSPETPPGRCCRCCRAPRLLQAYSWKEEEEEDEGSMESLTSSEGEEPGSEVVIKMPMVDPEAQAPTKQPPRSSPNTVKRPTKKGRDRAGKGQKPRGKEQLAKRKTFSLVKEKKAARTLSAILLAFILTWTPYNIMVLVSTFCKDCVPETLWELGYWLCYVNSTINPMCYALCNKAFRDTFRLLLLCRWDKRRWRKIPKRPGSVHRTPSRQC
| Structure (SMILES) | inhibition [%] |
| --- | --- |
| C[C@@H](c1cccc(C#N)c1)n1cc(Cl)cc(C(N)=O)c1=N | 14.9 |
| CCc1ccccc1C(=O)Nc1n[nH]c2c(C)c(F)c(C3C(C#N)=C(C)N(C)C(C)=C3C#N)cc12 | 2.81 |
| C[C@H](c1ccnc(Nc2nc3ccc(-c4cc(N(C)C)ncn4)cc3[nH]2)c1)N1CCN(C(=O)CC(F)(F)F)CC1 | 15.1 |
| CN([C@@H]1CCc2c(CC(=O)O)c3ccccc3n2C1)S(=O)(=O)c1ccc(F)cc1 | 2.42 |
| CC(=O)Nc1ncc(CN2CCC[C@H](Cc3cc(C)nc(C)c3)C2)s1 | 6.18 |
| CC(=O)N1CCC(c2ccc(C(=O)NC3=NCCN3)cc2C(F)(F)F)CC1 | -7.86 |

Sample 2 — read-out: enzyme activity; mode: inhibitor; tested at: 0.5 µM; baseline: control
SMILES: N/C(=N\[N+](=O)[O-])N/N=C\c1ccc(-c2cccc([N+](=O)[O-])c2)o1
| target | remaining activity |
| --- | --- |
| Homeodomain-interacting protein kinase 2 (HIPK2, Homo sapiens, UniProt Q9H2X6) | 103% |
| Ephrin type-B receptor 1 (EPHB1, Homo sapiens, UniProt P54762) | 107% |
| Tyrosine-protein kinase Srms (SRMS, Homo sapiens, UniProt Q9H3Y6) | 90.2% |
| Tyrosine-protein kinase ABL1 (ABL1, Homo sapiens, UniProt P00519) | 101% |
| Cyclin-dependent kinase 4, with cyclin D3 (CDK4, Homo sapiens, UniProt P11802) | 103% |
| Dual specificity tyrosine-phosphorylation-regulated kinase 3 (DYRK3, Homo sapiens, UniProt O43781) | 102% |
| Calcium/calmodulin-dependent protein kinase type II subunit beta (CAMK2B, Homo sapiens, UniProt Q13554) | 100% |
| Cyclin-dependent kinase 6, with cyclin D3 (CDK6, Homo sapiens, UniProt Q00534) | 94.7% |
| 3-phosphoinositide-dependent protein kinase 1 (PDPK1, Homo sapiens, UniProt O15530) | 94.6% |
| Mitogen-activated protein kinase kinase kinase kinase 4 (MAP4K4, Homo sapiens, UniProt O95819) | 95.6% |

Sample 3
Structure (SMILES): CC(C)S(=O)(=O)c1cc2c(Nc3ccc4sc(C5CCCC5)nc4c3)ccnc2cc1OCCO
| cell line | read-out | technique | tested at | added | viability |
| --- | --- | --- | --- | --- | --- |
| L929 | – | CCK-8 | 0.781 µM | – | 102% and 95.9% and 96% and 98.2% and 99.7% |
| L929 | – | CCK-8 | 3.125 µM | – | 92.6% and 92.7% and 92.9% and 98.5% and 97.7% |
| L929 RIPK3 knockout | – | – | 100 µM | zVAD | 17.7% and 11.6% and 11.5% |
| L929 RIPK3 knockout | – | – | 1.563 µM | zVAD | 91.2% and 90.9% and 97.8% and 88.8% |
| L929 RIPK3 knockout | – | – | 3.125 µM | zVAD | 94.7% and 92.9% and 88.3% |
| L929 RIPK3 knockout | – | – | 12.5 µM | zVAD | 81.9% and 85.5% and 80.8% and 79.5% and 88.9% |
| L929 | – | CCK-8 | 25 µM | – | 57.6% and 77.2% and 56.6% and 55.7% |
| L929 | – | CCK-8 | 12.5 µM | zVAD | 105% and 90.6% and 79.3% and 76.6% |
| L929 RIPK3 knockout | – | – | 3.125 µM | – | 91.9% and 96.2% and 96.7% and 96% and 90.8% |
| L929 | – | CCK-8 | 100 µM | – | 13.4% and 15% and 13.2% and 13.6% and 15.6% |
| L929 | necroptosis protection | CCK-8 | 0.37 µM | TNF-α plus zVAD | 45.1% |
| L929 RIPK3 knockout | – | – | 50 µM | – | 56.4% and 53.9% and 53.8% and 55.1% |

Sample 4 — cell line: mouse MPNST tumor cells; technique: high-content immunofluorescence imaging; item: nuclear SOX9; tested at: 10 µM; time: 12 h; setting: mean of 2 replicates; baseline: DMSO control; reading: higher = more nuclear SOX9
| SMILES | nuclear SOX9 intensity |
| --- | --- |
| OC(c1ccccc1)(c1ccccc1)C1CCNCC1 | 119 % of DMSO |
| C=CCN1C[C@H](C)N([C@H](c2ccc(C(=O)N(CC)CC)cc2)c2cccc(OC)c2)C[C@H]1C | 132 % of DMSO |
| CCCCCn1cc(C(=O)NC23CC4CC(CC(C4)C2)C3)c(=O)c2cc(-c3ccccc3)ccc21 | 97.1 % of DMSO |
| CN1[C@@H]2CC[C@H]1C[C@@H](OC(=O)c1cc(Cl)cc(Cl)c1)C2 | 153 % of DMSO |
| CN1[C@@H]2CC[C@H]1CC(OC(=O)N1Cc3ccccc3NC1=O)C2 (stereo partly drawn) | 99.5 % of DMSO |

A few entries again (sample 2):
| target | remaining activity |
| --- | --- |
| Tyrosine-protein kinase Srms (SRMS, Homo sapiens, UniProt Q9H3Y6) | 90.2% |
| Tyrosine-protein kinase ABL1 (ABL1, Homo sapiens, UniProt P00519) | 101% |
| Cyclin-dependent kinase 4, with cyclin D3 (CDK4, Homo sapiens, UniProt P11802) | 103% |
| Dual specificity tyrosine-phosphorylation-regulated kinase 3 (DYRK3, Homo sapiens, UniProt O43781) | 102% |
| Calcium/calmodulin-dependent protein kinase type II subunit beta (CAMK2B, Homo sapiens, UniProt Q13554) | 100% |
